Measurements of several laboratories.
Numbered parts are unrelated; each lists some results of a single study.

Series 1
Target: RNA binding protein fox-1 homolog 2, RRM domain, GST-SBP tag (RBFOX2, Homo sapiens, UniProt O43251-10, residues 100-194)
Method: RNA Bind-n-Seq
Molecule type: RNA
Sample: in vitro
Concentration: 365 nM
Setting: natural RNA segment, single round, ends assumed
Baseline: no-protein control
Reading: higher = stronger binding
All sequences stand within: GGGAGUUCUACAGUCCGACGAUC … UGGAAUUCUCGGGUGCCAA
Residues (chain): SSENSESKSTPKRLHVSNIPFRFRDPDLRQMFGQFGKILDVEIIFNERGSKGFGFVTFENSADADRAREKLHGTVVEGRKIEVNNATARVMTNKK
Strand	RBNS enrichment (R)
UUAGAUGACUUAAGUUAGCUAUAGGUUCAAGACCUGGACUAAAGUAUUACUUGGAAAUUCUGAGUAUUGCUAAAAAGGAGGAUGAAAGGGACCUAGAAGUUGAGUUAUUA	0.41
AUUUUUAAUCCCUGUGCCCAAUUUUGGAGUUGAGAGGGUUGUUGGUAAUAAAUGUAUGAUGUACACUAAAACAUCUGUUGUGUUUCAUGUCACUGUGUUAGGGAUGGGGA	0.503
CCAGCCAGGCUAGAGGAGUGCCAGCAGGUCCCAGUAGGUCCUUAGGAAGGCUGUCAAGGCCCAGUCCAUGGUUCCUUCUCUGCUUCUCCUACAUACCUUUCCCAUCACAC	0.255
UGGAGUGGACUUCAGUGGGCAUUCGUGCUAAGUCACCCUCAUCGGUAAAAUACUGCAAAGAACUAACAACAACAGGUUAGUGUUGGCUCCUGAACAGUAAACCGCUCUGA	0.447
CUUGGGUUUGGAGCUUAUUUGAAUGGAAGAGGUCAGUUUGUUCCUGGCUCUCCAUUUCUGGCCUCAGUUGUCUACAGGACAGUGGUCAGGGAUGCCUGGAGGCAUAUAUC	0.549

Series 2
Target: Protein C-ets-1 (ETS1, Homo sapiens, UniProt P14921, residues 1-441, full length assumed)
Sequence of UniProt P14921 (whole entry, looked up): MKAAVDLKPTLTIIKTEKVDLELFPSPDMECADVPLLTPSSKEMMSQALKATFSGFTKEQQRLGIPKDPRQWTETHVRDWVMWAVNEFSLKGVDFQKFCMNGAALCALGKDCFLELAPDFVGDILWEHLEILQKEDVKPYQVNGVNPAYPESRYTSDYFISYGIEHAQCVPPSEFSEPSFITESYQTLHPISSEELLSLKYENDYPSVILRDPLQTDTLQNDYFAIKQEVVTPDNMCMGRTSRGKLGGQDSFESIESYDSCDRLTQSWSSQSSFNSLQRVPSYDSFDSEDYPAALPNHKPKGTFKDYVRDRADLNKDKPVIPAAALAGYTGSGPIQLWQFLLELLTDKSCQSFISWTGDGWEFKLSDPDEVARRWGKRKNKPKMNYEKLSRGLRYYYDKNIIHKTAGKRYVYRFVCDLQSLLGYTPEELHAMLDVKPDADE
Method: protein-binding microarray
Molecule type: double-stranded DNA, one strand shown
Sample: in vitro
Concentration: not given
Setting: k-mer, scored over probes, only values ≥0.25
Reading: higher = stronger binding
Strand	E-score
ACAGGAAG	0.486
TAGCAGGA	0.267
CACTTCCG	0.491
ACAGGAAT	0.287
CGGGAAAC	0.396
ACCGGAGG	0.432
AGTTCCGC	0.406
CCGGAAGC	0.495

Series 3
Target: Interferon regulatory factor 5, full length, phosphomimetic (IRF5, Homo sapiens, UniProt Q13568-2, residues 1-514, K96S/S451D/S453D/S456D/S462D)
Method: protein-binding microarray
Molecule type: double-stranded DNA, one strand shown
Sample: in vitro
Concentration: 250 nM
Setting: 60-bp whole probe
With: salmon DNA 0.4 mg/ml
Baseline: random background probes
Reading: higher = stronger binding
All sequences stand within: GCCTAGCAC … GTCTTGATTCGCTTGACGCTGCTG
Strand	log fluorescence [z-score]
GACGGTTTCGGTTCCGGGCCGTGCTAG	9.32
TTAGGTATCGGGTTCGGTTAGTGCTAG	3.23
GACGGTTTCCGTTCCCTGACGTGCTAG	1.06
GATGATTTCGGGTTTCGAGACGTGCTA	5.94
GACGGTATAGGTCTCGGGACGTGCTAG	-0.259
TTAGGACTGGACTATCGCTTAGTGCTA	1.12
TTAGGTATCGGTTTGGGTTAGTGCTAG	7.68

Further values, each from its own experiment
Molecule	target	assay	test system	setting	how to read	endpoint	value
PhoQ, residues 284 288 289 292 302 303 TTSMTC	PhoP, residues 12 14 15 18 19 HLGGL (Escherichia coli, UniProt P23836)	Sort-seq, measured: YFP reporter	E. coli	PhoQ-PhoP variant library, with: 10 µM Mg2+	baseline: high Mg2+ state, higher = stronger signaling	fold induction	2.85

A few entries again (series 2):
Strand	E-score
CGGGAAAC	0.396
ACCGGAGG	0.432
